# Experimental data of several laboratories.
# Numbered parts are unrelated; each lists some results of a single study.

# Study 1 — technique: RNA Bind-n-Seq; form: RNA; matrix: in vitro; tested at: not given; setting: RNA with constant flanks, ends assumed; baseline: input RNA pool; reading: higher = stronger binding
# Target: RING finger protein unkempt homolog, zinc fingers 1-6, GST-SBP tag (UNK, Homo sapiens, UniProt Q9C0B0, residues 30-357)
# Constant ends, left off below: GGGAGUUCUACAGUCCGACGAUC … CAACAGAGGAUUGAGCAUCA
# Target sequence (chain): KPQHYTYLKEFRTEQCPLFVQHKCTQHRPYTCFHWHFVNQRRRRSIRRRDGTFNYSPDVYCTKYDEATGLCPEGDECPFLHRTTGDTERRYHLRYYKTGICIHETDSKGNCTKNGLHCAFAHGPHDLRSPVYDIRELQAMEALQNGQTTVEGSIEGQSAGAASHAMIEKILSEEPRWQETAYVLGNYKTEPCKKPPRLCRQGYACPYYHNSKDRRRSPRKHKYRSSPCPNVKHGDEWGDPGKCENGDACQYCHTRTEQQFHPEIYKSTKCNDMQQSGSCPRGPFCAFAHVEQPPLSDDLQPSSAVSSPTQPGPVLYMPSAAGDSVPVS
Strand,bound/input enrichment [ratio]
AGCAAAACCAGAGCAUCCUUAAAGUGCAGGAAGUCUUUGCCGUCGUUGUUAAGCAUGUGUUUCCGUCAGGUCAGAAACAUCAGGUACCACAGCUCCCCAGCACUCUCUUGAGGCUAGAAA,0.119
CGAGCUGGAUCCAGAGUUGCAUACAGACCAAUUUCUGCAUCAGUGUUAUCUCGACCAGAGGCCCGCCGGACUGGAGAGGGCUCUACGGUAUUUAAUGGGGCCCAGAAUGGUGUGUCUCAG,0.115
GCCAUCUGGGGUGUGGUGUGGUAUGUGGGAAGAAGUUCAGAGGAACCGUUGGAAACGACGUCCGGCAUUUUACCUUUUCAGUAACAUUUUAUACAUCUACUUGUCAAUGUAUUUGAGACA,0.284
CCUGAAGUGCGACACCACUGUCCCAAUACUCCUAUCAUCCUCGUGGGGACGAAGCUUGAUCUCCGGGAUGAUAAGGACACCAUUGAGAAGCUGAAGGAGAAGAAGCUGACUCCCAUCACC,0.05
UAUAUCCUCUCCCUCUACCUGUAACAAUUUUGUUUUCUACUGUUAAUUACAUUGUGUAUUUACCGUUCUAUGCUUACUGUUGUGCAUAUACUGGCAAUAAAACUGUACAUAACAUUACUU,0.199
GGAGGGUAUGGAGGCUAUGAUGACUAUGGUGGCUAUAAUGAUGGAUAUGGCUUUGGGUCUGACCGAUUUGGAAGAGACCUCAAUUACUGUUUUUCAGGAAUGUCUGAUCAUAGAUACGGA,0.36
ACCCUGGACUGUGAGCCCAAGUGUGUGGAAGAGUUACCUGAGUGGAACUUUGAUGGCUCCCGUACCUUUCAGUCUGAAGGCUCCAACAGCGACAUGUACCUCCAUCCUGUUGCCAUGUUU,0.215
CUAAAGAUAAGCAAUUUAAAGAAAAUUUUAAAAGGAAUCUUGGAUUAUAAUCAUGAGAUUUCCGGACAGCAAAUUAAUGACUUUACCCUUCCUGAUGUGAACCUUAUUGGGGAGCAUUCU,0.404

# Study 2 — technique: competition protein-binding microarray; form: double-stranded DNA, one strand shown; matrix: in vitro; tested at: 2 µM; with: Cbf1 competitor, 0.05 µM; reading: higher = stronger binding; constant ends, left off below: … GTCTTGATTCGCTTGACGCTGCTG
# Target: Phosphate system positive regulatory protein PHO4, full length, GST-tagged (PHO4, Saccharomyces cerevisiae, UniProt P07270, residues 1-312)
# Setting: whole 60-bp probe, lowest competitor level
# Residues (chain): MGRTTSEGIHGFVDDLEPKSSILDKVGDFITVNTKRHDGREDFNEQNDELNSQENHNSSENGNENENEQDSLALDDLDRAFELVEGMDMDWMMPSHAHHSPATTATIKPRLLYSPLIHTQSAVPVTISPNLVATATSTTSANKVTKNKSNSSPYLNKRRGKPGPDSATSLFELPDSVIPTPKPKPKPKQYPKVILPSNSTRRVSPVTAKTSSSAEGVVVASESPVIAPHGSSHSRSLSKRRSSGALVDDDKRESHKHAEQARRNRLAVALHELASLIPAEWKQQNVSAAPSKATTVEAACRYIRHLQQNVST
Strand,fluorescence intensity
GTCGCGTAATTTTCTTGAAACCATCCATTCACCGAT,3400 a.u.
CGGGGTTAAGTTTTTCACGTGAGATGCTTGCAGCAG,10700 a.u.
CATACACCAAACGCAAATGTGCGGACGGACAAATTC,5490 a.u.
TGCGCAACAACTTGTCACATTACTTTATGTCTAGAA,4060 a.u.
TCTTCTTGCGAGGCGCTCGTGGTCGAGCCGTTCGTA,9800 a.u.
TGTAAATTTTTGTATAATTTCATCATGGAGGTGCAT,5220 a.u.
CTTTCCCGATCTTGTCACTATACTTTAGCACATTTG,4420 a.u.
GGCCCATGAACCCATCACGTTTTTCTAATGCAGGGC,12400 a.u.
GGTACGGCAACTCAATCCGTGCCAGCTTCGGAAGCC,4560 a.u.

# Study 3 — technique: universal PBM; form: double-stranded DNA, one strand shown; matrix: in vitro; tested at: 600 nM; reading: higher = stronger binding
# Target: Sal-like protein 4, full length isoform A (SALL4, Homo sapiens, UniProt Q9UJQ4, residues 1-1053)
# Sequence of UniProt Q9UJQ4 (whole entry, looked up): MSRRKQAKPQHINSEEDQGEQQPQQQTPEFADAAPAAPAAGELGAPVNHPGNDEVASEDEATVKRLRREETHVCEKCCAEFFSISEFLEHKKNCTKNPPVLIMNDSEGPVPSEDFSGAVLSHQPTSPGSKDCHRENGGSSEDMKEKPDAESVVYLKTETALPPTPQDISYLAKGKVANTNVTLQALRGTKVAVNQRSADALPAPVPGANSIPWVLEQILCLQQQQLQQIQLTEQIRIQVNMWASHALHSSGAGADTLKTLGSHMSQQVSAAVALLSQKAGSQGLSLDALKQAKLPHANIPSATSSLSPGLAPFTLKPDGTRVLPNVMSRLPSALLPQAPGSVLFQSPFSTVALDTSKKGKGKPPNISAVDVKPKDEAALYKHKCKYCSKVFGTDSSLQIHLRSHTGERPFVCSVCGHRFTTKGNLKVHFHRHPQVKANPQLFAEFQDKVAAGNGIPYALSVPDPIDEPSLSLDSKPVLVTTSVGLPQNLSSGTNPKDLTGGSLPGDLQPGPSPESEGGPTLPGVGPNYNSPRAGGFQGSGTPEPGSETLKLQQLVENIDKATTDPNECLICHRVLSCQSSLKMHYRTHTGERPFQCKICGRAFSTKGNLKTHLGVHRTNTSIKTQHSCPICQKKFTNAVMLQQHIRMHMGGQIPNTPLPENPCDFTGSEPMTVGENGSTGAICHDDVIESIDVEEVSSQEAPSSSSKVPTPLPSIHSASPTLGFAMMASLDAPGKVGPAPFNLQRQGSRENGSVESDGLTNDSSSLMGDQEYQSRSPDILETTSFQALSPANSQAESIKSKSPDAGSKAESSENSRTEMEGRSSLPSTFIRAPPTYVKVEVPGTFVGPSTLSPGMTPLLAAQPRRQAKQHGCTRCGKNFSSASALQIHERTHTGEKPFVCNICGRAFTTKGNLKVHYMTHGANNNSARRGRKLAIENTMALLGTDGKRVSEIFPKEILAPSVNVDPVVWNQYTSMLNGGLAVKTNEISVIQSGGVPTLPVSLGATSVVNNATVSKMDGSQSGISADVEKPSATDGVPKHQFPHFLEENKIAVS
# Setting: 8-mer, flanks averaged, mean of replicates
Strand,E-score
CGATTCTC,-0.0167
TATTACAA,0.402
ATGACGTG,-0.0684
GCTCGGCC,-0.344
AATATGCA,0.234
CCACGGTC,-0.398
GAAGTGAC,-0.0629
GTATACAC,0.0746
AAATACAG,0.265
ATTGTTAA,0.346
TCCTCCGA,-0.229

# Other studies, line by line
Substance,target,test,system,setting,scale,measurement,result
"PhoQ, residues 284 288 289 292 302 303 SNGLAW","PhoP, residues 12 14 15 18 19 QWHVF (Escherichia coli, UniProt P23836)","Sort-seq, measured: YFP reporter",E. coli,"PhoQ-PhoP variant library, with: 10 µM Mg2+","baseline: high Mg2+ state, higher = stronger signaling",fold induction,7.64

# A few entries again (study 3):
Strand,E-score
GAAGTGAC,-0.0629
TATTACAA,0.402
CCACGGTC,-0.398
GCTCGGCC,-0.344
ATTGTTAA,0.346
